{"data": "Measurements from different studies", "organism": "Mycobacterium tuberculosis", "note": "Each line is one published result; not all experiments were run side by side. ± marks the error that the study gave."}
{"SMILES": "CN(C)c1ccc(-c2nc3ccccc3n2CCCOc2ccccc2)cc1", "assay": "ATP level", "system": "H37Rv", "setting": "anaerobic", "IC50 [nM]": 9740}
{"SMILES": "COc1ccc2c(=O)c(C)c(-c3ccc(N4CCCCC4)cc3)[nH]c2c1", "assay": "microbial growth", "system": "H37RV", "IC50 [nM]": 810}
{"SMILES": "N#CC1(C(=O)NCCCNc2ccc(C(F)(F)F)cn2)CCCC1", "assay": "microbial growth", "IC50 [nM]": 830}
{"SMILES": "COC(=O)C(=O)[C@H](CC(C)C)NC(=O)[C@H](CCCCN)NC(=O)[C@H](Cc1ccccc1)NC(=O)OCc1ccccc1", "assay": "bacterial growth", "system": "THP-1 macrophages, Mtb-lux", "setting": "24 h", "IC50 [nM]": "16400 ± 4400"}
{"SMILES": "CC(C)n1ncc2c(C(=O)NCC(c3cccs3)N3CCOCC3)cc(-c3ccccc3)nc21 (stereo not drawn)", "assay": "bacterial growth, inhibitor", "system": "mmpL3-TetON", "IC50 [nM]": 220}
{"SMILES": "CCC1=NN2C(=N)C(=Cc3ccc(Sc4ccc(C)cc4)o3)C(=O)N=C2S1", "assay": "resazurin", "system": "wild type", "setting": "168 h, nutrient-starved", "IC50 [nM]": 2000}
{"SMILES": "CCCCCCC#Cc1cncc(-c2nnc(SC[C@H]3O[C@@H](n4ccc(=O)[nH]c4=O)[C@@H]4OC(C)(C)O[C@@H]43)n2C)c1", "assay": "microbial growth, resazurin", "system": "ERDMAN", "IC50 [nM]": 26000}
{"SMILES": "CC(C)c1cc(N)c2cc(NC(=O)C(=O)Nc3ccc4nc(C(C)C)cc(N)c4c3)ccc2n1", "assay": "resazurin", "system": "wild type", "setting": "168 h, nutrient-starved", "IC50 [nM]": 500}
{"SMILES": "CCc1ccc(CN2CCC3(CC2)OCCc2sccc23)s1", "assay": "microbial growth", "IC50 [nM]": 3430}
{"SMILES": "COCCOC(=O)N1CCC2(CCCN(Cc3ccc(Cl)c(Cl)c3)C2)C1 (stereo not drawn)", "assay": "resazurin", "system": "wild type", "setting": "168 h, nutrient-starved", "IC50 [nM]": 8000}
{"SMILES": "Cc1c(-c2ccc(Oc3ccc(OC(F)(F)F)cc3)nc2)[nH]c2ccccc2c1=O", "assay": "microbial growth", "system": "H37RV", "IC50 [nM]": 1970}
{"SMILES": "N=C1C(=Cc2ccc(SCc3ccc(Cl)cc3)o2)C(=O)N=C2SC(c3cccs3)=NN12", "assay": "resazurin", "system": "wild type", "setting": "168 h, nutrient-starved", "IC50 [nM]": 8000}
{"SMILES": "CCc1ccc(C2CC(C(F)(F)F)n3ncc(C(=O)NCc4ccc(OC)cc4)c3N2)cc1 (stereo not drawn)", "assay": "microbial growth", "IC50 [nM]": 740}
{"SMILES": "CC(C)(C)c1ccc(-c2cncc(-c3nc4ccc5cc(C(=O)O)cc(O)c5c4[nH]3)c2)cc1", "assay": "resazurin", "system": "wild type", "setting": "168 h, nutrient-starved", "IC50 [nM]": 4000}
{"SMILES": "CC(C)=CCC/C(C)=C/CNCCNC1C2CC3CC(C2)CC1C3 (stereo not drawn)", "assay": "bacterial growth, inhibitor", "system": "mmpL3-TetON", "IC50 [nM]": 150}
{"note": "Some of these lines once more:"}
{"SMILES": "N#CC1(C(=O)NCCCNc2ccc(C(F)(F)F)cn2)CCCC1", "assay": "microbial growth", "IC50 [nM]": 830}
{"SMILES": "CN(C)c1ccc(-c2nc3ccccc3n2CCCOc2ccccc2)cc1", "assay": "ATP level", "system": "H37Rv", "setting": "anaerobic", "IC50 [nM]": 9740}
